Assay results of several laboratories.
Every numbered part comes from another study and shows a few of its results, in no order.

Study 1 — method: protein binding microarray; form: double-stranded DNA, one strand shown; sample: in vitro; concentration: not given; baseline: not given; direction: higher = stronger binding
Target: Histone acetyltransferase KAT6A, winged helix 2, GST fusion (KAT6A, Homo sapiens, UniProt Q92794, residues 85-181)
Setting: 8-mer, flanks averaged, mean of 2 arrays, mostly near background
Residues (chain): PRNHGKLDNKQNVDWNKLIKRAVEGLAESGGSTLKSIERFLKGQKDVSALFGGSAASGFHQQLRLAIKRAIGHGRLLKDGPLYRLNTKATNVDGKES
| Strand | E-score |
| --- | --- |
| TATCGATA | -0.0166 |
| ACAATCCG | 0.0651 |
| CTTAGGGA | -0.159 |
| GGCCCCCC | 0.152 |
| AATTCACG | -0.0891 |
| TCTAAGCA | -0.113 |
| GCCGAACA | 0.124 |
| AGCATCGA | 0.0761 |
| ATGTATTC | -0.052 |
| GAGCATCC | 0.103 |
| CAAAGGGG | 0.0618 |
| TGGAGACA | -0.0503 |
| ACCTGGAG | 0.013 |
| GGCATACC | 0.000495 |
| AGTTTAAT | 0.0914 |
| ACTCTACT | -0.0747 |
| ATCGTTAC | -0.137 |
| CGAACTAA | 0.111 |
| ATCCTATC | -0.138 |
| CACTACCC | -0.113 |
| ATGGGAGC | -0.124 |
| GGTCATGA | -0.0173 |
| AAAACGTA | -0.106 |
| ATAACCTG | -0.269 |
| GAAGGAGC | -0.156 |

Study 2 — method: RNA Bind-n-Seq; form: RNA; sample: in vitro; concentration: 365 nM; baseline: no-protein control; direction: higher = stronger binding
Target: RNA binding protein fox-1 homolog 2, RRM domain, GST-SBP tag (RBFOX2, Homo sapiens, UniProt O43251-10, residues 100-194)
Setting: natural RNA segment, single round, ends assumed
Target sequence (chain): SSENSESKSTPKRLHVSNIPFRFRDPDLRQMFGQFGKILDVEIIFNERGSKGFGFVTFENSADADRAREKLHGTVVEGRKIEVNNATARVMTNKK
| Strand | RBNS enrichment (R) |
| --- | --- |
| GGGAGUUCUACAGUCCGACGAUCGACCUGGUGCCUGGCGCUGCCUUCAGCAGGCAGCAGGCAGCCUCCUGCACACUGGCUUUUUUAGUCAUUUAUGGGCAAAAAGAGUUAAAGUAAAACUUUGCAAAUCCCGAUGGAAUUCUCGGGUGCCAA | 0.296 |
| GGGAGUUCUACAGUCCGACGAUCGACAGACUCCUAACCUGGGGCCUCUGCAGUGGCAGGCGAGGCUGCAGGAGGCCCACAGAUAAGCUGGCAAGAGGAAGGAUCCCAGGCACAUGGUUCAUCACGAGCAUGAGUGGAAUUCUCGGGUGCCAA | 1.16 |
| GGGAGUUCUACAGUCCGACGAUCCUGCGUAUCUUUGACUUAAUUGGCACAUGACUUUUUCAAGCAGCCAUUCAUUCAGAGGUUUGUUUUCUCUCAGUCCUUUUGCUACAUUCACUUUCUUUUCAAAGAAAUGUUGGAAUUCUCGGGUGCCAA | 0.459 |
| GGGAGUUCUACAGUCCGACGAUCAGAUGGUCAAAACCCAGUUUUCCCUCUGGGAGCCUAAACCAGGCUGCAUCGGAGGCCAGGACCCGGAUCAUUCACUGUGAUACCCUGCCCUCCAGAGGGUGCGCUCAGAGUGGAAUUCUCGGGUGCCAA | 0.193 |
| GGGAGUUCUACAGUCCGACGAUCAUGUUCCCAAAUUCAGCAGUAACGUCCACAUGGGACCUUUUCACGUGACUCUGUGGGGCUUCUUUCUCCUUUUCACUUUCCCCUUUAACCCAUGUCUGACUUAGUGCUGCUGGAAUUCUCGGGUGCCAA | 0.423 |
| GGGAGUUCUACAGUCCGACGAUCCUAGGUUAUACAGAUGCCAUGCUCCACACCACGAGCAGUGUACAAAUCUGGCUGCCCGUUUACUUUCUGAGCAAGCACUGGAGUCCACUCCGACCUUUUUCUUUGAACAUUGGAAUUCUCGGGUGCCAA | 0.252 |
| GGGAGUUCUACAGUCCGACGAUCCAGGGCAUGCCAGCGUUAACACCACUUUGAGAGACCAAUGGCAAGAAAUGCUGUCUCUUGUGCAUUUUACUAAUUUCCCCAUUCUUAGGGUAGCAGGGUGGGGGUGUAUAUGGAAUUCUCGGGUGCCAA | 9.92 |
| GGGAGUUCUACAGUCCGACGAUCGGGUGCUCUGUUUCCCCACCGUUCCCAGGUGUACGAGGCAGAGGGCCGGGACAGCUUUCCUCUCAGUCAUUGUUCACCCCACUUGAAAAUUCAGACAAGAAAACUUUGCUUGGAAUUCUCGGGUGCCAA | 0.464 |
| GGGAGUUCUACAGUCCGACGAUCCCCAGGGCAUCUGCCAACUCCAGCAUCAACUCAACUCCCACCGCAUACCUGGUGCUGUCCCUGGGCUCUGCUGGUCAUGUGAGGCAGCCUCGGAGAAGGAAGCAGAGGGUUGGAAUUCUCGGGUGCCAA | 1.14 |
| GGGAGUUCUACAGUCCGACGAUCUAAAUGAUGUUUCUUCUGCAACUGGCUACUCCUCUUAUAUUAAUGCAUACACUUUUGUAAAGAAGUAAUUUUUAUGAUAAAAAAACUUUGUAAAAGUAUGAUGUAAAUUUUGGAAUUCUCGGGUGCCAA | 0.582 |
| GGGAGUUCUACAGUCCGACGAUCGAUGUAUGCCCCACCCCCUCCUCCUCCGCCUCCCAUGGACCCUUCUAACUUUGUCACCAUGAUGGGCAUGGGGGUGGCGGGCAUGCCGCCCUUCGGGAUGCCUCCAGCUCUGGAAUUCUCGGGUGCCAA | 0.588 |
| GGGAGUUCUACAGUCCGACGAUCCCCAAUACCUCUGAGGGUCAGAACUGUGCUUGGGACCUGAGUCAUGAGCCCAGAUCCACAGCAGAGCACAGGCUGCCAAGAUGUCUACUGAAAGUCCCUGAUCAACUCUUUGGAAUUCUCGGGUGCCAA | 0.182 |

Study 3 — method: universal PBM; form: double-stranded DNA, one strand shown; sample: in vitro; concentration: 600 nM; direction: higher = stronger binding
Target: Sal-like protein 4, full length isoform A (SALL4, Homo sapiens, UniProt Q9UJQ4, residues 1-1053)
Sequence of UniProt Q9UJQ4 (whole entry, looked up): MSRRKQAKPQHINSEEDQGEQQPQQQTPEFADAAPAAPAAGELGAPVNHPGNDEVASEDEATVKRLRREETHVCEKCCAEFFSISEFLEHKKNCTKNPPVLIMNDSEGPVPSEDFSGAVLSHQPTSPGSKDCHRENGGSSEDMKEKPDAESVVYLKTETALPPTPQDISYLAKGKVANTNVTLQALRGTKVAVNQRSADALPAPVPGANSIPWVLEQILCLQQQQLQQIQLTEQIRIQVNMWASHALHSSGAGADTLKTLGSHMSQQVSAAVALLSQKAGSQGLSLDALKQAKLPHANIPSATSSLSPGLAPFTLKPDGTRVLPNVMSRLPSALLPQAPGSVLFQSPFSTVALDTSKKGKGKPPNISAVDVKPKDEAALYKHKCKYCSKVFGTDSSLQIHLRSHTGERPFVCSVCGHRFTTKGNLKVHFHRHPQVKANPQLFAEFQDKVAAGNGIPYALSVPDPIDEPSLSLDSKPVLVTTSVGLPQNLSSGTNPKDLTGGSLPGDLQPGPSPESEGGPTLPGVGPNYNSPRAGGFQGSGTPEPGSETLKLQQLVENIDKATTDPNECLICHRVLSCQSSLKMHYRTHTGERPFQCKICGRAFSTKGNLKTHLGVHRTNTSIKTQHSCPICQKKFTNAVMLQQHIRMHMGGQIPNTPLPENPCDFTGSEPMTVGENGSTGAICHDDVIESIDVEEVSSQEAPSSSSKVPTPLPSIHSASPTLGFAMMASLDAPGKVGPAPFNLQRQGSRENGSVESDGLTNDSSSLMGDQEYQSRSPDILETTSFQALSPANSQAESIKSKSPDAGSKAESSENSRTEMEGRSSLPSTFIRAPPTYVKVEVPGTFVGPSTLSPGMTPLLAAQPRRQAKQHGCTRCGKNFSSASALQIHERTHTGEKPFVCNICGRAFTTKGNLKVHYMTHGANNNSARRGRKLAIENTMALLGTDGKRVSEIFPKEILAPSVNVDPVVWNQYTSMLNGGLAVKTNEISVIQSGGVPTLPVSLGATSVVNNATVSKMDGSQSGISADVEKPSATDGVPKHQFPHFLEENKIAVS
Setting: 8-mer, flanks averaged, mean of replicates
| Strand | E-score |
| --- | --- |
| ACTCCGCA | -0.259 |
| ACTCGGAT | 0.0804 |
| AGGATGAT | 0.0727 |
| CTCAAAAG | 0.0282 |
| CTGTTCTA | 0.0609 |
| GACTCGCC | -0.242 |
| ATCCCTTG | -0.0616 |
| CTCGCACC | -0.214 |
| AAGGGCGC | -0.226 |
| CAGAACTA | 0.0942 |
| GTGAGGTA | -0.0737 |
| AGTGAAAA | 0.181 |
| CATCCATG | 0.0436 |
| AGTATCGA | 0.193 |
| GTAAGGCA | 0.014 |
| ATTGTCTA | 0.201 |

Study 4 — method: RNA Bind-n-Seq; form: RNA; sample: in vitro; concentration: 200 nM; setting: whole 134-nt RNA, ends assumed; with: 150 mM LiCl; baseline: input library; direction: higher = stronger binding; each molecule: 7-deaza-guanosine replaces G
Target: Ras GTPase-activating protein-binding protein 1, full length (G3BP1, Homo sapiens, UniProt Q13283)
Sequence of UniProt Q13283 (whole entry, looked up): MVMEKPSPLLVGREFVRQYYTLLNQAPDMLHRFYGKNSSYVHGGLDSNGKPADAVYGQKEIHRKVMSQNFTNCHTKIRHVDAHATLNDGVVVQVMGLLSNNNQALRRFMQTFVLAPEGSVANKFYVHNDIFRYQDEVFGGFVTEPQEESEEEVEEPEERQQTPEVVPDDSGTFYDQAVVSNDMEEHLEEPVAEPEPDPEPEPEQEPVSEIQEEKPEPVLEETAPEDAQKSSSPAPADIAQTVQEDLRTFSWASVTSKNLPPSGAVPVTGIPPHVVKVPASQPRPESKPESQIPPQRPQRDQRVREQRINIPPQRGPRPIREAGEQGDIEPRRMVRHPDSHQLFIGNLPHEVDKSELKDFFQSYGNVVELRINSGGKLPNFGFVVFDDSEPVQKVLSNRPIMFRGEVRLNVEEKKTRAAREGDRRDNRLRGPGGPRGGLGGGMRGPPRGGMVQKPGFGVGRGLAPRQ
| Strand | log2 enrichment |
| --- | --- |
| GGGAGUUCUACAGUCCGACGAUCCCUCAAGUCCUGUGCUACACAUCGUAUGUACCGAAUCGGUUGGUUGGGUUGGGAAAGUAUUAUGUUACGCCGUUCGGAUCUGCACUUCCAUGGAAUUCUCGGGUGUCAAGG | 0.543 |
| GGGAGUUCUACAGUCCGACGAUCAGUCCUGUGCUACACAUCGUAUGUACCGAAUCGGCCCCCGGCCCCCGGGGCCCCCGGAAAGUAUUAUGUUACGCCGUUCGGAUCUGCACUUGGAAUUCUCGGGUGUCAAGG | -1.84 |
| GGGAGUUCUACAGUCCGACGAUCUGCAGAUUGAUGAGUAUGAUCACUCCAAGCCCAUCCAGGGGCAACAGAAGAAGCCCUUUGAGGUGCACUGGAGGAAGCACACCCUGUCCUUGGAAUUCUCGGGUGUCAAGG | -1.8 |
| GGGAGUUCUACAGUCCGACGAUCUGGGAGGUGGAUUUUGUUUAUUUUUUUAGCUCAUUUCCUGGGGUGGGAAUUUUUUUUUAAUAUGUGUCAUGAAUAAAGUUGUUUUUGAAAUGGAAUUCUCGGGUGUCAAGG | -0.233 |
| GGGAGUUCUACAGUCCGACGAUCAGUCCUGUGCUACACAUCGUAUGUACCGAAUCGGGGAAAAAAAGGGGUGGGGUGGGGAAAGUAUUAUGUUACGCCGUUCGGAUCUGCACUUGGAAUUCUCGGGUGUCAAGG | -0.0138 |
| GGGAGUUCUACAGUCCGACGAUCUGGCCCUGGUGGCAUCCGGGGAGGAAGAGGUGGCCUCAUGGAUCGUGGUGGUCCCGGUGGAAUGUUCAGAGGUGGCCGUGGUGGAGACAGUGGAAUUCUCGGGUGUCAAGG | 0.619 |
| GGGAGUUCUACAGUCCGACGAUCUGGGGUCUGCGUACGCCUGGAGUCCUUCCCCGCUGUGCUCAGCAUGGACCCUAUCCGGAGCUUCUGCGGGAAGCUGCGGUCUCUGGCCAGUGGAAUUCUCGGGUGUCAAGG | -0.678 |
| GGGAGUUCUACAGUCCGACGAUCUCCUGUGCUACACAUCGUAUGUACCGAAUCGGGGAAAAAGGGGAAAAAGGGGAAAAAGGGAAAGUAUUAUGUUACGCCGUUCGGAUCUGCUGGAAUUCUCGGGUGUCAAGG | 0.0641 |
| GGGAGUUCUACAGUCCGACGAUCCUGUGCUACACAUCGUAUGUACCGAAUCGGGAAAAAAAGGGAAAAAAAGGGGAAAAAAAGGGAAAGUAUUAUGUUACGCCGUUCGGAUCUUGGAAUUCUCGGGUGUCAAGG | 0.118 |
| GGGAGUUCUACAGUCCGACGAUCUGGCUUUCACCCCCAACCAGUGACCAAAGACUUGACCACUCAAAGUCCAGCUCCCCAGAACACUGCUCGACAUGGACACCGGUGUGAUUGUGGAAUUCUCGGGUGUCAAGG | 1.38 |
| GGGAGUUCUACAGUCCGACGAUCUGGCCCUGGUGGCAUGCGGGGAGGAAGAGGUGGCCUCAUGGAUCGUGGUGGUCCCGGUGGAAUGUUCAGAGGUGGCCGUUGUGGAGACAGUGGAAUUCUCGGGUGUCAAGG | -0.376 |

Study 5 — method: protein-binding microarray; form: double-stranded DNA, one strand shown; sample: in vitro; concentration: 250 nM; setting: 60-bp whole probe; with: salmon DNA 0.4 mg/ml; baseline: random background probes; direction: higher = stronger binding; all sequences stand within: GCCTAGCAC … GTCTTGATTCGCTTGACGCTGCTG
Target: Interferon regulatory factor 5, full length, phosphomimetic (IRF5, Homo sapiens, UniProt Q13568-2, residues 1-514, K96S/S451D/S453D/S456D/S462D)
| Strand | log fluorescence [z-score] |
| --- | --- |
| TTAGGCCTCCTTCTCCTTTAGTGCTAG | -0.352 |
| GACGGTCTCCTTTTCCCGACGTGCTAG | 0.219 |
| GACGGACTAGACTATCGGGACGTGCTA | 0.896 |
| AGACAAGCATTTGGTGATGCGTGCTAG | -0.488 |
| GGCGGTCTCCTTATCCTGACGTGCTAG | -0.486 |
| GACGATCTCAGACTGGACACGTGCTAG | -0.347 |
| GACGATTTCGGCTTTCGAGACGTGCTA | 4.87 |
| TCACCTATAGGTTTCTAACTGTGCTAG | 0.555 |
| GACGGTTTGGACACTGGGGACGTGCTA | -0.269 |
| TCACATTTGATAAATCTTACTGTGCTA | 0.878 |
| TTAGATCTCACACTGGATTAGTGCTAG | -0.0654 |
| TTAGGTATCGACTATCAGTTAGTGCTA | 4.77 |
| TTAGGAATGGACTTTCGGTTAGTGCTA | 9.56 |
| TTAAATTTCGGGACTGGATTAGTGCTA | 3.8 |
| TCAGCTCACGCTTTGGAACTGTGCTAG | -0.365 |
| TTAGAACTGAGAGTGGATTAGTGCTAG | 0.0847 |
| ATCGTAAGCAAAAATGATTGGTGCTAG | 0.502 |
| GACGGTTTCGACACTGGTGACGTGCTA | 4.63 |
| TTTGATTTCGGGTATCGATTAGTGCTA | 8.66 |
| GACGGTATCGCGTTTCGGGACGTGCTA | 1.67 |
| TCACATGTGCTGTCTCAGACTGTGCTA | -0.176 |
| ACTAGTTTCCATTTTCAGAAGTGCTAG | 2.95 |
| TTAGGTATCGGTTATCGGTTAGTGCTA | 8.53 |
| GACGAGTTCAGTTTCGAGACGTGCTAG | 5.33 |
| GACGGTATCGGTCTCGGTACGTGCTAG | 5.78 |

For quick reference, copied from above (study 1):
| Strand | E-score |
| --- | --- |
| CTTAGGGA | -0.159 |
| GGCCCCCC | 0.152 |
| AATTCACG | -0.0891 |
| TCTAAGCA | -0.113 |
| GCCGAACA | 0.124 |
| AGCATCGA | 0.0761 |
| ATGTATTC | -0.052 |
| GAGCATCC | 0.103 |
| CAAAGGGG | 0.0618 |
| TGGAGACA | -0.0503 |
| ACCTGGAG | 0.013 |
| GGCATACC | 0.000495 |
| AGTTTAAT | 0.0914 |
